Results collected from several papers.
Lines come from different studies, so protocols differ. ± marks the error that the study gave. In brackets after ≈: the same amount, converted by molar mass.
Organism: Staphylococcus aureus

SMILES | test | system | conditions | how to read | endpoint | value
C=CC(=O)NCCCCOCc1cn(CCCCNC(=O)C=C)n[n+]1C | growth, turbidity OD600 |  | 24 h |  | IC50 | > 100 µM
COc1cc2c(cc1OC)C1Cc3ccc(OC)c(OC)c3C[NH+]1CC2.[Cl][Fe-]([Cl])([Cl])[Cl] (stereo not shown) |  |  | 24 h, 37 °C |  | MIC50 | 1180 µM
C=CC(=O)NCCCCCCCCOCc1cn(CCCCCCCCNC(=O)C=C)nn1 | growth, turbidity OD600 |  | 24 h |  | IC50 | > 100 µM
CCCCCC(=O)Oc1c(C)c(OC)c2c(c1C)OC(=O)[C@@H](CCCC)[C@]2(O)/C=C/c1ccccc1 (relative stereo) | microbial killing, broth dilution | ATCC25923 |  |  | MBC | > 5000 µg/mL
CC1C=CC=CC(C)C2C=CC3CC(C)(O)C(Cl)C(C)C3C2C(=O)C(Cl)(Cl)C(=O)C(C)C(=O)O1 (stereo not shown) |  | MSSA and MRSA clinical isolates | 180 isolates |  | MIC90 | 0.1 µg/mL (≈ 0.188 µM)
CC(CCCOC(=O)CCC[N+](C)(C)C)C1CCC2C3C(OC(=O)CCC[N+](C)(C)C)CC4CC(OC(=O)CCC[N+](C)(C)C)CCC4(C)C3CC(OC(=O)CCC[N+](C)(C)C)C12C (stereo not shown) | microbial growth, disc diffusion | ATCC29213 | 250 µg/disc, 24 h |  | inhibition zone | 13 mm
O=C1C=CC(=O)N1CCCCCCCCCCOCc1cn(CCCCCCCCCCN2C(=O)C=CC2=O)nn1 | growth, turbidity OD600 |  | 24 h |  | IC50 | > 100 µM
CC[C@H](C)[C@H](NC(=O)[C@H](CC1CCCCC1)NC(=O)[C@@H](Cc1ccccc1)NC(=O)[C@@H](N)CCCN)C(=O)N[C@H](Cc1ccccc1)C(=O)N[C@@H](Cc1cn(Cc2ccccc2)cn1)C(N)=O |  | ATCC 33591, methicillin-resistant |  |  | IC50 | > 20 µg/mL
COc1c(C)c(OC(=O)c2ccccc2)c(C)c(OC(=O)c2ccccc2)c1C(=O)/C=C/c1ccccc1 | microbial killing, broth dilution | ATCC25923 |  |  | MBC | > 5000 µg/mL
CC(CCCOC(=O)CCC[N+](C)(C)C)C1CCC2C3CCC4CC(OC(=O)CCC[N+](C)(C)C)CCC4(C)C3CCC12C (stereo not shown) | microbial growth, disc diffusion | ATCC29213 | 15.6 µg/disc, 24 h |  | inhibition zone | 11 mm
CCCCCCCCCCCC(=O)Oc1c(C)c(OC)c2c(c1C)OC(=O)[C@@H](CCCCCCCCCC)[C@]2(O)/C=C/c1ccccc1 (relative stereo) | microbial killing, broth dilution | ATCC25923 |  |  | MBC | > 5000 µg/mL
O=c1c(O)ccccc1Br | microbial growth, broth dilution | ATCC29213 |  |  | MIC80 | 16.1 µM (≈ 3.24 µg/mL)
C=C(NC(=O)c1csc(-c2nc3c(cc2O)-c2nc(cs2)C(=O)NC(C(C)O)C(=O)NC(=C(C)OC)c2nc(cs2)C(=O)NC2c4nc(cs4)C(=O)NC(COC(=O)c4c5c6c(cccc6n4O)COC(=O)C(OC4CC(C)(O)C(N(C)C)C(C)O4)C2OC5)c2nc-3cs2)n1)C(N)=O (stereo not shown) |  | ATCC 43300 MRSA | 1/2×MIC, 1 h exposure |  | post-antibiotic effect | 0.36 ± 0.05 h
C=CC(=O)NCCCCOCc1cn(CCCCNC(=O)C=C)nn1 | growth, turbidity OD600 |  | 24 h |  | IC50 | > 100 µM
CC[C@H](C)[C@H](NC(=O)[C@H](CC1CCCCC1)NC(=O)[C@H](Cc1c[nH]c2ccccc12)NC(=O)[C@@H](N)CCCN)C(=O)N[C@H](Cc1ccccc1)C(=O)N[C@@H](Cc1cn(Cc2ccccc2)cn1)C(N)=O |  | ATCC 33591, methicillin-resistant |  |  | IC50 | > 20 µg/mL
O=C(Oc1cccccc1=O)c1ccccc1 | microbial growth, broth dilution | ATCC29213 |  |  | MIC80 | 19.8 µM (≈ 4.48 µg/mL)
C=CS(=O)(=O)NCCCCCCOCc1cn(CCCCCCNS(=O)(=O)C=C)nn1 | growth, turbidity OD600 |  | 24 h |  | IC50 | > 100 µM

SMILES | test | system | conditions | how to read | endpoint | value
N=C(N)NCCC[C@@H]1NC(=O)[C@H](CCCNC(=N)N)NC(=O)[C@@H](CCCNC(=N)N)NC(=O)[C@@H](CCCNC(=N)N)NC(=O)[C@@H](C(c2ccccc2)c2ccccc2)NC(=O)[C@H](Cc2c[nH]c3ccccc23)NC(=O)[C@@H](C(c2ccccc2)c2ccccc2)NC1=O |  | MRSA ATCC BAA-1556 | MIC, 24 h, pre-formed biofilm |  | biofilm reduction | 41 to 49%
CC[C@H](C)[C@H](NC(=O)[C@H](CCCN)NC(=O)[C@H](CC(N)=O)NC(=O)[C@H](Cc1c[nH]c2ccccc12)NC(=O)[C@H](Cc1ccccc1)NC(=O)[C@H](CCCN)NC(=O)[C@H](CCCCNC(=N)N)NC(=O)[C@H](CC(C)C)NC(=O)[C@H](Cc1c[nH]c2ccccc12)NC(=O)[C@H](CCCN)NC(=O)[C@H](CCCCNC(=N)N)NC(=O)[C@H](CC(C)C)NC(=O)CNC(C)=O)C(=O)N[C@@H](CCCN)C(=O)N[C@@H](CCCCNC(=N)N)C(N)=O |  |  | concentration not given, with: FeCl3 4 µM | reference: without salt | MIC fold change | 2 fold
COc1ccc2cc3[n+](cc2c1OC)CCc1cc2c(cc1-3)OCO2.[Cl][Fe-]([Cl])([Cl])[Cl] |  |  | 24 h, 37 °C |  | MBC | 400 µM
C=C(C)C(=O)NCCCCCCCCOCc1cn(CCCCCCCCNC(=O)C(=C)C)n[n+]1C | growth, turbidity OD600 |  | 24 h |  | IC50 | > 100 µM
CC(C)[C@H](NC(=O)[C@H](CC1CCCCC1)NC(=O)[C@@H](Cc1c[nH]c2ccccc12)NC(=O)[C@@H](N)CCCN)C(=O)N[C@H](Cc1ccccc1)C(=O)N[C@@H](Cc1cn(Cc2ccccc2)cn1)C(N)=O |  | ATCC 33591, methicillin-resistant |  |  | IC50 | > 20 µg/mL
O=c1cccccc1O | microbial growth, broth dilution | ATCC29213 |  |  | MIC80 | 11.7 µM (≈ 1.43 µg/mL)
COc1c(C)c(OCc2ccccc2)c(C)c(OCc2ccccc2)c1C(=O)/C=C/c1ccccc1 | microbial killing, broth dilution | ATCC25923 |  |  | MBC | > 5000 µg/mL
CC[C@H](C)[C@H](NC(=O)[C@H](CC1CCCCC1)NC(=O)[C@H](CC(C)C)NC(=O)[C@@H](N)CCCN)C(=O)N[C@H](Cc1ccccc1)C(=O)N[C@@H](Cc1cn(Cc2ccccc2)cn1)C(N)=O | bacterial growth | ATCC 29213 |  |  | IC50 | > 20 µg/mL
CC(C)c1ccc2c(c1)CCC1C(C)(CN(CC(O)C[N+](C)(C)C)CC(O)C[N+](C)(C)C)CCCC21C (stereo not shown) | microbial growth, disc diffusion | ATCC29213 | 250 µg/disc, 24 h |  | inhibition zone | 18 mm
CC[C@H](C)[C@H](NC(=O)[C@H](CC1CCCCC1)NC(=O)[C@@H](NC(=O)[C@@H](N)CCCN)c1ccccc1)C(=O)N[C@H](Cc1ccccc1)C(=O)N[C@@H](Cc1cn(Cc2ccccc2)cn1)C(N)=O |  | ATCC 33591, methicillin-resistant |  |  | IC50 | > 20 µg/mL
C=CC(=O)NCCCCCCCCCCOCc1cn(CCCCCCCCCCNC(=O)C=C)n[n+]1C | microbial growth, absorbance |  | 24 h |  | IC50 | 52 µM
CC(CCCOC(=O)CCC[N+](C)(C)C)C1CCC2C3CCC4CC(OC(=O)CCC[N+](C)(C)C)CCC4(C)C3CC(OC(=O)CCC[N+](C)(C)C)C12C (stereo not shown) | microbial growth, disc diffusion | ATCC29213 | 15.6 µg/disc, 24 h |  | inhibition zone | 18 mm
CCCCCCCC(=O)Oc1c(C)c(OC)c2c(/C=C/c3ccccc3)c(CCCCCC)c(=O)oc2c1C | microbial killing, broth dilution | ATCC25923 |  |  | MBC | > 5000 µg/mL
CC(C)C1=CC2=CCC3C(C)(C(=O)OCCC[N+](C)(C)C)CCCC3(C)C2CC1 (stereo not shown) | microbial growth, disc diffusion | ATCC29213 | 250 µg/disc, 24 h |  | inhibition zone | 19 mm
C=C1CN(C(=N)N)CC2Nc3c(F)cc(Br)cc3C12CCNS(=O)(=O)c1ccc(Cl)cc1.O=C(O)C(F)(F)F (stereo not shown) |  | MRSA ATCC BAA-44 | with: cefazolin |  | minimum resensitizing concentration | 2 µg/mL
C=C(C)C(=O)NCCCCCCOCc1cn(CCCCCCNC(=O)C(=C)C)nn1 | growth, turbidity OD600 |  | 24 h |  | IC50 | > 100 µM
CC[C@H](C)[C@H](NC(=O)[C@H](CC1CCCCC1)NC(=O)[C@@H]1CCCN1C(=O)[C@@H](N)CCCN)C(=O)N[C@H](Cc1ccccc1)C(=O)N[C@@H](Cc1cn(Cc2ccccc2)cn1)C(N)=O | bacterial growth | ATCC 29213 |  |  | IC50 | > 20 µg/mL

Excerpt of the above:
SMILES | test | system | conditions | how to read | endpoint | value
C=C(NC(=O)c1csc(-c2nc3c(cc2O)-c2nc(cs2)C(=O)NC(C(C)O)C(=O)NC(=C(C)OC)c2nc(cs2)C(=O)NC2c4nc(cs4)C(=O)NC(COC(=O)c4c5c6c(cccc6n4O)COC(=O)C(OC4CC(C)(O)C(N(C)C)C(C)O4)C2OC5)c2nc-3cs2)n1)C(N)=O (stereo not shown) |  | ATCC 43300 MRSA | 1/2×MIC, 1 h exposure |  | post-antibiotic effect | 0.36 ± 0.05 h
C=CC(=O)NCCCCOCc1cn(CCCCNC(=O)C=C)nn1 | growth, turbidity OD600 |  | 24 h |  | IC50 | > 100 µM
CC[C@H](C)[C@H](NC(=O)[C@H](CC1CCCCC1)NC(=O)[C@H](Cc1c[nH]c2ccccc12)NC(=O)[C@@H](N)CCCN)C(=O)N[C@H](Cc1ccccc1)C(=O)N[C@@H](Cc1cn(Cc2ccccc2)cn1)C(N)=O |  | ATCC 33591, methicillin-resistant |  |  | IC50 | > 20 µg/mL
O=C(Oc1cccccc1=O)c1ccccc1 | microbial growth, broth dilution | ATCC29213 |  |  | MIC80 | 19.8 µM (≈ 4.48 µg/mL)
